Measurements collected from several papers.
Each numbered part is a random draw from the data of one study; scales do not carry over between parts.

Block 1
Target: RING finger protein unkempt homolog, zinc fingers 1-6, GST-SBP tag (UNK, Homo sapiens, UniProt Q9C0B0, residues 30-357)
UniProt Q9C0B0, sequence (30-357, looked up): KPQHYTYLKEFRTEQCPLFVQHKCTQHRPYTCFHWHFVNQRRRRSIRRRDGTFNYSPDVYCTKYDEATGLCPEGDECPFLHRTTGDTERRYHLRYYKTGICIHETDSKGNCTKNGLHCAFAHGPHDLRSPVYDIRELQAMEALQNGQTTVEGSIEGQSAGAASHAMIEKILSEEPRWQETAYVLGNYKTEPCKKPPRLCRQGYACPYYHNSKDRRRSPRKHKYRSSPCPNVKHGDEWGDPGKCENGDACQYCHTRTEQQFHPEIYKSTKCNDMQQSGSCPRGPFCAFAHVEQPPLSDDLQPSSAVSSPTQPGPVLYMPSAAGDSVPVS
Technique: RNA Bind-n-Seq
Form: RNA
Sample: in vitro
Concentration: not given
Notes: RNA with constant flanks, human and mouse sites, ends assumed
Reference: input RNA pool
Reading: higher = stronger binding
Measurement: bound/input enrichment
Shared flanks, not repeated: GGGAGUUCUACAGUCCGACGAUC … CAACAGAGGAUUGAGCAUCA
Sequence = GACUUGGACCUUCCUGGGCUAGUGCAAAUAGCGGCAGUGGAGGCUCAAGAGGAAAGUUUGUUAGUGGAGGCAGUGGUAGAGGUCGUCAUGUACGCUCCUUUACACGAUAAAAAUCCUUUU; value = 0.125 ratio
Sequence = CAAGAUUUUCAGAUGUUAAGUAGAAUAUGGACUCAUCCUUGGUGUUUGCAGCUAGACUACAUUAGCAAAGAAAAUAAGGGUUAUUUUGAUGAAGACAGUAUGGAUGAAUUUAUAGCCUCA; value = 0.608 ratio
Sequence = GAAUAGGUUGGGUAUAACACCUGCAGUUUCCAGCUCUAUGAAACAGGAGAGAGAGAGAAAUAGCAGUUUGACUUGACUGUGGAAGAUGAUGGUUGCAUGCUUCUCAUUUGUACGUUUCCA; value = 0.257 ratio
Sequence = CAGUACAUUUCUCCAUUUCAUGAUGUUCCAAUUUAUGCAGACAAGGAUGUGUUCCACAUGGUGGUUGAGGUUCCACGCUGGUCCAACGCCAAAAUGGAGAUUGCUACAAAGGACCCUUUA; value = 0.166 ratio
Sequence = GAUAACUAUUUCAUAUGGAGUUUCAUCGGGCCUGUUACUUUCAUUAUUCUGCUAAAUAUUAUUUUCCUGGUGAUCACGCUGUGCAAAAUGGUGAAACAUUCAAACACUCUGAAACCAGAU; value = 0.177 ratio
Sequence = UAAUUUGGCUGCAAUUGCAUGAAAUCCCAAUGGUGUAGACCAGUGGCGAUGGAUCUAGGAGUUUACCAACUGAGACAUUUUUCCAUUUCUUUCUUGUCGUCUUUGCUGGGAACCGAAAAC; value = 0.304 ratio
Sequence = GAUUAUAUUGAUUUGGUACACAGUAAAUGGGAGUUUAAAAAAUCCAAAGACUCUAAUGACUUGUAAAGACUCUAAUGAUUUGUAUCAUGUAAUGAACUAAACCACCUGUAAUUUUGUACC; value = 0.187 ratio
Sequence = UGCGUUGGCACCAACAUGGUGGGGGAACGGGAGAGUGAAGUCGCAGAGCUAACCGUUUUAGAGAGACCAUCGUUUGUGAAGAGACCCAGUAAUUUGGCAGUGACUGUGGAUGACAGUGCA; value = 0.729 ratio

Block 2
Target: Replicase polyprotein 1ab, polymerase (rep, Severe acute respiratory syndrome coronavirus 2, UniProt P0DTD1)
Read-out: enzyme activity
Mode: inhibitor
Concentration: 20 µM
Measurement: inhibition
Structure (SMILES) = COCCCN1CCC(NC(=O)c2cc(Cl)c(N)c3c2OCC3)CC1; value = -6.15%
Structure (SMILES) = CCNCCCNCCCCNCCCNCC; value = -6.59%
Structure (SMILES) = O=C1c2c(O)cccc2Cc2cccc(O)c21; value = 69.6%
Structure (SMILES) = CC1CCc2c(cc(Br)c(F)c2Br)N1C=O (centres unmarked); value = -7.11%
Structure (SMILES) = COc1ccc(C(=O)c2c(C)n(CCN3CCOCC3)c3cc(I)ccc23)cc1; value = -0.48%
Structure (SMILES) = COc1cc2c(cc1OC)-c1c(C)c3ccc(OC)c(OC)c3c[n+]1CC2; value = -0.32%
Structure (SMILES) = Cc1cc(C)cc(C(=O)NOCCCCCC(=O)NO)c1; value = 17.3%
Structure (SMILES) = O=C(NC1CCNCC1)[C@@H]1CC[C@@H]2CN1C(=O)N2OS(=O)(=O)O; value = -4.04%
Structure (SMILES) = CC(=O)N[C@H]1[C@H]([C@H](O)[C@H](O)CO)OC(C(=O)O)=C[C@@H]1NC(=N)N; value = -3.59%
Structure (SMILES) = NC(=O)c1cccc2cn(-c3ccc([C@@H]4CCCNC4)cc3)nc12; value = 11.6%
Structure (SMILES) = CC1(C)O[C@@H]2C[C@H]3[C@@H]4CCC5=CC(=O)C=C[C@]5(C)[C@@]4(F)[C@@H](O)C[C@]3(C)[C@]2(C(=O)CO)O1; value = 22.6%
Structure (SMILES) = C[C@@H](C1=C(CCN(C)C)Cc2ccccc21)c1ccccn1; value = 3.68%
Structure (SMILES) = CN(C)CCOc1cc(-c2cn[nH]c2)ccc1NC(=O)C1COc2ccccc2O1 (centres unmarked); value = 0.34%
Structure (SMILES) = O=C(OCC(O)CO)c1ccccc1Nc1ccnc2c(C(F)(F)F)cccc12 (centres unmarked); value = -0.64%
Structure (SMILES) = CN[C@@H]1[C@@H](O[C@H]2O[C@H](CO)[C@@H](N)[C@H](O)[C@H]2O)O[C@H]2C[C@@H](N)[C@@H](O[C@H]3[C@H](O)[C@@H](O)[C@H](N)C[C@@H]3N)O[C@@H]2[C@@H]1O; value = -14.6%
Structure (SMILES) = O=C1NC(=O)C(c2cnc3ccccn23)=C1c1cn2c3c(cc(F)cc13)CN(C(=O)N1CCCCC1)CC2; value = 7.46%
Structure (SMILES) = O=C(/C=C/c1ccccc1)NC(NC(=S)Nc1cccc2cccnc12)C(Cl)(Cl)Cl (centres unmarked); value = 3.31%
Structure (SMILES) = CN[C@@H]1C[C@@H](c2ccc(Cl)c(Cl)c2)c2ccccc21; value = -0.63%
Structure (SMILES) = CCNC(=O)Nc1ccc(-c2nc3c(c(N4CCOC[C@@H]4C)n2)CCN(C2COC2)C3)cc1; value = 4.11%
Structure (SMILES) = CC[C@@H]1/C=C(\C)C[C@H](C)C[C@H](OC)[C@H]2O[C@@](O)(C(=O)C(=O)N3CCCC[C@H]3C(=O)O[C@H](/C(C)=C/[C@@H]3CC[C@@H](O)[C@H](OC)C3)[C@H](C)[C@@H](O)CC1=O)[C@H](C)C[C@@H]2OC; value = -6.12%
Structure (SMILES) = CCC(O)(CC(N)=O)c1ccccc1 (centres unmarked); value = 10.1%
Structure (SMILES) = CC(C)(c1ccc(O)cc1)c1ccc(O)cc1; value = 2.95%
Structure (SMILES) = Nc1ncnc2c1nc(Br)n2[C@@H]1O[C@@H]2COP(=O)(O)O[C@H]2[C@H]1O; value = -5.91%
Structure (SMILES) = CC1(c2ccccc2)OC(C(=O)O)=CC1=O (centres unmarked); value = 3.83%
Structure (SMILES) = CO/N=C1/C[C@@H](C(=O)NC[C@@H](O)c2ccccc2)N(C(=O)c2ccc(-c3ccccc3C)cc2)C1; value = 0.64%

Block 3
Target: Centromere-binding protein 1, full length, His-tagged (CBF1, Saccharomyces cerevisiae, UniProt P17106, residues 1-351)
UniProt P17106, sequence (whole entry, looked up): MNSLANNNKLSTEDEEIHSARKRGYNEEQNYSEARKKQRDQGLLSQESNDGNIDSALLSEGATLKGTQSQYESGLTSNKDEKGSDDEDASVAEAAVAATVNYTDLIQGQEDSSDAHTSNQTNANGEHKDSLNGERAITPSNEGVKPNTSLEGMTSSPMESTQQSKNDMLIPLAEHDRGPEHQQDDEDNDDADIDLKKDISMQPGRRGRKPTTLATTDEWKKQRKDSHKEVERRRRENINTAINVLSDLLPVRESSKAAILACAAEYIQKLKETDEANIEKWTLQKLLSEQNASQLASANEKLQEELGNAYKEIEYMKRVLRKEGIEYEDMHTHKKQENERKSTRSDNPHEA
Technique: competition protein-binding microarray
Form: double-stranded DNA, one strand shown
Sample: in vitro
Concentration: 2 µM
Notes: whole 60-bp probe, lowest competitor level
With: Pho4 competitor, 0.05 µM
Reading: higher = stronger binding
Measurement: fluorescence intensity
Shared flanks, not repeated: … GTCTTGATTCGCTTGACGCTGCTG
Sequence = CTCGCATAACGCAGGCACAGGTCTCGAACTGCGGTG; value = 58.2 a.u.
Sequence = CATACCCAACCTTGAGGAGTGGGTGAAGATATTTGT; value = 62.1 a.u.
Sequence = GTCTTGTCTCATTGGCCGGTGGGTGTCCCCACTTCA; value = 66.7 a.u.
Sequence = AAAGCGGTAATTTGAAGGGTGGGTGCAGATATCTAT; value = 72.2 a.u.
Sequence = AGCACCACAGCGTACCATGTGCGCTACGAGGCCTCA; value = 89 a.u.
Sequence = AGTCACTATGATGAGGATAATACCATGAAGAAAAAT; value = 72.9 a.u.
Sequence = CTTTCCCGATCTTGGAGTGTGGGTGTAGCACATTTG; value = 73.3 a.u.
Sequence = TGTGCTTGGTTTGGAAACGTGCAAACACCTTACCTG; value = 96.3 a.u.

Block 4
Target: Sal-like protein 4, full length isoform A (SALL4, Homo sapiens, UniProt Q9UJQ4, residues 1-1053)
UniProt Q9UJQ4, sequence (whole entry, looked up): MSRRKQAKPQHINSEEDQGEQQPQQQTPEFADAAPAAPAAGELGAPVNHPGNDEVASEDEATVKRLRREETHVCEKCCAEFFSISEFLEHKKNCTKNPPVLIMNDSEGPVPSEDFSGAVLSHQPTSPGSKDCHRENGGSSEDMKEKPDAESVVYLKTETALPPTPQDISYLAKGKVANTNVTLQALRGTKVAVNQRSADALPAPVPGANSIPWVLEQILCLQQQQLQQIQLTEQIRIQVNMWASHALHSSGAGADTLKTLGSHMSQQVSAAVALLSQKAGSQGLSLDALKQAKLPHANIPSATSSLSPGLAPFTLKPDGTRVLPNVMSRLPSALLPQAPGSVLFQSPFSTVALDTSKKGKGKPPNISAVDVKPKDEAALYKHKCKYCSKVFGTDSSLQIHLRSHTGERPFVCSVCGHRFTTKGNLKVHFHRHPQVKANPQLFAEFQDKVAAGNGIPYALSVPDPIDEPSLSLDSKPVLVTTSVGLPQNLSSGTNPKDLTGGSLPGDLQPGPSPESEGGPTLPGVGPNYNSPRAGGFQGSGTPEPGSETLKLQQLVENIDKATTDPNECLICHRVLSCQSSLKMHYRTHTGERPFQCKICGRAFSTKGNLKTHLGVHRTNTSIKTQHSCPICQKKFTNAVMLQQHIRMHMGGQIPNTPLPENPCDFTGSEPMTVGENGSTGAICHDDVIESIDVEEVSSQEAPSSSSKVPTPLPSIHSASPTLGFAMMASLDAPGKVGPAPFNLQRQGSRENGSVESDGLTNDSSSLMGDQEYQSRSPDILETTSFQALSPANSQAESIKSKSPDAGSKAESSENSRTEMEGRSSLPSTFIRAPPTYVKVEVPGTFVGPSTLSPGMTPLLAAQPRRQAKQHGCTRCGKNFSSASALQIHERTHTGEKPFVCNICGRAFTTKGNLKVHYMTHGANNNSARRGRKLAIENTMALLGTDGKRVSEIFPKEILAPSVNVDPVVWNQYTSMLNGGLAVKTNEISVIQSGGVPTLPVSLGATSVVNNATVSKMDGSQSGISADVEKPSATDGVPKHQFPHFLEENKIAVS
Technique: universal PBM
Form: double-stranded DNA, one strand shown
Sample: in vitro
Concentration: 600 nM
Notes: 8-mer, flanks averaged, mean of replicates
Reading: higher = stronger binding
Measurement: E-score
Sequence = ATAACTGG; value = 0.231
Sequence = CTAGGTCA; value = -0.0352
Sequence = CACGAACA; value = 0.0567
Sequence = CTCGCTGA; value = -0.12
Sequence = CGACGGGC; value = -0.198
Sequence = ACCGGGAT; value = -0.269
Sequence = CGTCCGGA; value = -0.258
Sequence = GGTATGAA; value = 0.226

Block 5
Target: Replicase polyprotein 1ab, main protease (rep, Severe acute respiratory syndrome coronavirus 2, UniProt P0DTD1)
Read-out: enzyme activity
Mode: inhibitor
Concentration: 20 µM
Notes: primary screen
Measurement: inhibition
Structure (SMILES) = C=C(CC)C(=O)c1ccc(OCC(=O)O)c(Cl)c1Cl; value = 29.7%
Structure (SMILES) = CC(=O)[O][Hg][c]1ccccc1; value = 100%
Structure (SMILES) = O=C(O)c1cc(N2N=C(C(F)(F)F)/C(=C/c3ccc(-c4ccccc4)o3)C2=O)ccc1Cl; value = 80.6%
Structure (SMILES) = CCCCC(CC)C/N=C(\N)N/C(N)=N/CCCCCC/N=C(\N)N/C(N)=N/CC(CC)CCCC (centres unmarked); value = 29.8%

Block 6
Cell line: HEK-293T/ACE2
Concentration: 10 µM
Time: 16 h
Reference: vehicle
Measurement: viability
SMILES = Cc1cccc(Nc2ccncc2S(=O)(=O)NC(=O)NC(C)C)c1; value = 99.5%
SMILES = CCCCCCCCCCC[C@@H](C[C@@H]1OC(=O)[C@H]1CCCCCC)OC(=O)[C@H](CC(C)C)NC=O; value = 98.9%
SMILES = O=C(O)c1cc(-c2ccc(F)cc2F)ccc1O; value = 100%

Excerpt of the above (block 3):
Sequence = AAAGCGGTAATTTGAAGGGTGGGTGCAGATATCTAT; value = 72.2 a.u.
Sequence = CTCGCATAACGCAGGCACAGGTCTCGAACTGCGGTG; value = 58.2 a.u.
Sequence = GTCTTGTCTCATTGGCCGGTGGGTGTCCCCACTTCA; value = 66.7 a.u.
Sequence = CATACCCAACCTTGAGGAGTGGGTGAAGATATTTGT; value = 62.1 a.u.
